Published values of several laboratories.
A part holds a random share of what one study measured. Positions count from the first letter of the parent shown.

Study 1 — target: CCNE2, cyclin fold, Cln2 fusion (human); technique: yeast growth competition, sequencing; medium: yeast; notes: weak parent motif; baseline: not given; direction: higher = stronger binding; measurement: normalised enrichment score
Starting sequence: RB1 docking peptide (human); PKPLKKLRFDIEG
P1D: 1.75
I11G: 0.646
L7C: 1.09
G13A: 0.919
L7A: 1.19
P3I: 0.98

Study 2 — technique: RNA Bind-n-Seq; molecule type: RNA; medium: in vitro; concentration: not given; baseline: input RNA pool; direction: higher = stronger binding; measurement: bound/input enrichment
Target: RING finger protein unkempt homolog, zinc fingers 1-6, GST-SBP tag (UNK, Homo sapiens, UniProt Q9C0B0, residues 30-357)
Notes: RNA with constant flanks, human and mouse sites, ends assumed
Shared flanks, not repeated: GGGAGUUCUACAGUCCGACGAUC … CAACAGAGGAUUGAGCAUCA
Target sequence (chain): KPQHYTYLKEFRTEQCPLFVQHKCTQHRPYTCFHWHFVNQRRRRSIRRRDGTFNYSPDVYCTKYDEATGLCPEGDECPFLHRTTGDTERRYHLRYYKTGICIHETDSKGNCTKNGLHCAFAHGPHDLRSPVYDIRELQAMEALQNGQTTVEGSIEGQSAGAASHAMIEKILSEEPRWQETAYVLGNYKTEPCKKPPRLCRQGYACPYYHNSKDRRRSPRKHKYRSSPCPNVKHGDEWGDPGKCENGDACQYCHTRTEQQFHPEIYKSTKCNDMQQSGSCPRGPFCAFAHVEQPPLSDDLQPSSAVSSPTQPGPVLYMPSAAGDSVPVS
AAGUUGAAAGAAAGGUCAAAGGCAUCUGGAGAUGAAAAUGAUAAUAUUGAGAUAGAUACUAACGAAGAGAUUCCUGAAGGCUUUGUUGUAGGAGGUGGAGAUGAACUUACUAAUAUAGAA: 2.12 ratio
AUCAAGGCAGACCUGGCAGCUGUCGAGGCAAAAGUAAACCGGAGCACUGCUCUUCUGAAGAGCUUGUCUGCUGAACGUGAACGAUGGGAAAAAACAAGUGAAACUUUCAAAAACCAGAUG: 0.109 ratio
AGUCUCAACACACUGGAACUCUUCGACAACCGGCUGACAACCGUGCCCACGCAGGCCUUUGAGUACCUGUCCAAGCUCCGGGAGCUGUGGCUGCGCAACAACCCCAUCGAAAGCAUCCCA: 0.126 ratio
CUCUGUCCUGAAUGUGAGAAUCCUGAAACAGAUUUGCAUGUCAAUCCAAAGAAGCAAACAAUAGGUAAUUCUUGUAAAGCCUGUGGCUAUCGAGGCAUGCUUGACACACAUCAUAAACUC: 0.211 ratio
CGUGGCAUCCCCUGGAAGGAUGAGGCACAGGUAGUGAAGUGGGCCCUAGAGAAGCUGGAACUGACAAAGUAUGCAGACAAGCCAGCUGGCACCUACAGUGGAGGCAACAAACGGAAGCUU: 0.147 ratio
CAUCUCGCCCACGUGGUGUUAAGCGUCGCUGGAGACUUAGUCGCAUUGUCUUCCGCCACUUAGCUGACCACGGGCUACUUUCUGGAGUCCAGCGAGCGAUAUGGUAAAACCAUUUCAGAA: 0.088 ratio
AUAUGUCUUAUAUUUUCCUGUGACUCUGGAAACUAAACCAUUGUGUGUCUUGUCGUGUCCUAGUUGAGCUGGGGCCUAGCAGCUUCCUUCCAGUGGGUGUGGAGCAAACGUGUAUGUCGC: 0.291 ratio
UACAAAGAAAUCAUCAUUGAAGCCACUAAACAUCGCAACUCUGAAGAGAUGUGGAGGAGGAUGAACUUGAUGACGCCAGAAGCCCUGGGUAAGCUCAAAGAAGAGAUGAAAAGUUGUGGG: 0.189 ratio
ACAUUAAGCAGACUGUCUCAGGUAUAAUGAAAAGAAUCGUCCAGUAGAGAUAGUGGAACAUCUUGCUAGUUGUCCUGUCUGUAGGACUCGAGAGUUGGGAGGAGGGAGGAAGGCAGGGAA: 1.43 ratio

Study 3 — technique: protein binding microarray; molecule type: double-stranded DNA, one strand shown; medium: in vitro; concentration: not given; baseline: not given; direction: higher = stronger binding; measurement: E-score
Target: Histone acetyltransferase KAT6A, winged helix 1, GST fusion (KAT6A, Homo sapiens, UniProt Q92794, residues 1-85)
Notes: 8-mer, flanks averaged, mean of 2 arrays, mostly near background
Residues (chain): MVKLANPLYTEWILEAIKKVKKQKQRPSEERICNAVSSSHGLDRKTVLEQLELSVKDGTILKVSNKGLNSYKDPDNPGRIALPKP
ACCGTTCT: 0.0258
AGGGCCAT: -0.0778
ACTAGTTA: -0.177
CTTTAATA: 0.0244
ATCAAAGC: -0.00995
GAAGGCCC: 0.0542
CTTAGATC: -0.293
AGCAGAAT: -0.152
GAGGTTGC: 0.089
GGCAGAGA: -0.0576

Other studies, line by line
PhoQ, residues 284 288 289 292 302 303 SSLVEF
fold induction (PhoP, residues 12 14 15 18 19 SMASL (Escherichia coli, UniProt P23836); Sort-seq, item: YFP reporter; E. coli; PhoQ-PhoP variant library, added: 10 µM Mg2+; baseline: high Mg2+ state, higher = stronger signaling): 9.13

Repeated from above (study 2):
CAUCUCGCCCACGUGGUGUUAAGCGUCGCUGGAGACUUAGUCGCAUUGUCUUCCGCCACUUAGCUGACCACGGGCUACUUUCUGGAGUCCAGCGAGCGAUAUGGUAAAACCAUUUCAGAA: 0.088 ratio
CGUGGCAUCCCCUGGAAGGAUGAGGCACAGGUAGUGAAGUGGGCCCUAGAGAAGCUGGAACUGACAAAGUAUGCAGACAAGCCAGCUGGCACCUACAGUGGAGGCAACAAACGGAAGCUU: 0.147 ratio
AAGUUGAAAGAAAGGUCAAAGGCAUCUGGAGAUGAAAAUGAUAAUAUUGAGAUAGAUACUAACGAAGAGAUUCCUGAAGGCUUUGUUGUAGGAGGUGGAGAUGAACUUACUAAUAUAGAA: 2.12 ratio
